Assay results from different studies.
Parts stem from different laboratories: compare values within a part only. Positions count from the first letter of the parent shown.

Block 1 — method: protein-binding microarray; molecule type: double-stranded DNA, one strand shown; matrix: in vitro; tested at: 940 nM top; setting: 60-bp whole probe; together with: salmon DNA 0.4 mg/ml; reference: random background probes; direction: higher = stronger binding; constant ends, left off below: GCCTAGCAC … GTCTTGATTCGCTTGACGCTGCTG
Target: Interferon regulatory factor 5, full length, phosphomimetic (IRF5, Homo sapiens, UniProt Q13568-2, residues 1-514, S451D/S453D/S456D/S462D)
Strand | fitted relative affinity [z-score]
TTCGATTTCGGGACTGGATTAGTGCTA | 0.804
GACGCTTTCCTTTTCCTGACGTGCTAG | 1.43
ATAGAACTGAGTTTCGATTAGTGCTAG | 7.98
TCATCTAAAAAGTCTCTGACTGTGCTA | 0.214
TGAGAACTGAGTCTCGATTAGTGCTAG | 3.23
GACGGTTTCGGTCTCGGGAGGTGCTAG | 13.4
TTTGATTTCGGGTATCGATTAGTGCTA | 4.27
TTAGGACTAGACTATCGGTTAGTGCTA | -0.401
TCAACTTGTCTTTTCACACTGTGCTAG | 0.644
TCAGTGCTCCTTTTAATACTGTGCTAG | 0.198
ATAGATTTCAGTATCGATTAGTGCTAG | 5.87
TTCGAACTGGGGTTTCGATTAGTGCTA | 5.65
TCCCTTTCAGTTTTCCTCTGGTGCTAG | 2.69
GACGATTTCCGGACTGGAGACGTGCTA | -0.0193
GACGATTTCAGGATCGAGACGTGCTAG | -0.0671
AAGCTTCTGGTCTTCTGGACGTGCTAG | -0.0504
GACGGTTTGGGTTCCGGGACGTGCTAG | 0.164
TCAGCAAAAATGATTGGACTGTGCTAG | -0.339
GACGGACTGCGTCTCCTGACGTGCTAG | -0.422
TACGGACTGGACACTGGGGACGTGCTA | -0.593
TTAGGACCGCTACTGCTTTAGTGCTAG | -0.267
AACGGTATCGACTATCGGGACGTGCTA | 4.87
TTAGGACTGCTATTCCTTTAGTGCTAG | -0.405

Block 2 — target: CCNB3, cyclin fold, Cln2 fusion (human); method: yeast growth competition, sequencing; matrix: yeast; setting: weak parent motif; reference: not given; direction: higher = stronger binding
Parent: E2F1 docking peptide (human); PPVKRRLDLETDH; partner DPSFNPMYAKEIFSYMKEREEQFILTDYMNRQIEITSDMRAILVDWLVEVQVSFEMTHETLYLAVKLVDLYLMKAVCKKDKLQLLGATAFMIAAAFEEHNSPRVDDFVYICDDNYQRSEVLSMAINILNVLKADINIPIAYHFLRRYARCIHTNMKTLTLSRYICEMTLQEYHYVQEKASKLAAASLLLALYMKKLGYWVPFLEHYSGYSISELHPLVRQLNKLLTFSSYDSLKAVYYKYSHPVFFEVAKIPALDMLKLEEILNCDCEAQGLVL
Substitution | normalised enrichment score
PPVKDRLDLETDH [R5D] | 0.0332
PPVKRRLDLETDF [H13F] | 0.313
PPVKRRNDLETDH [L7N] | 0.432
PPVMRRLDLETDH [K4M] | 0.673
PPVNRRLDLETDH [K4N] | 0.381
PPVKRRLDLETRH [D12R] | 0.306
PPYKRRLDLETDH [V3Y] | 0.185
PPVHRRLDLETDH [K4H] | 0.715
PPVKRSLDLETDH [R6S] | 0.000643
PPVKRILDLETDH [R6I] | 0.411
PPVKKRLDLETDH [R5K] | -0.152
PPVKRRLDLSTDH [E10S] | 0.441
PPVKRRLDLEYDH [T11Y] | 0.829
PPVKRRLDLPTDH [E10P] | 0.192
PPVWRRLDLETDH [K4W] | 0.409
MPVKRRLDLETDH [P1M] | 0.988
PHVKRRLDLETDH [P2H] | 0.606
PPWKRRLDLETDH [V3W] | 0.066
PPVKRVLDLETDH [R6V] | 0.586
PPVKRRLDLELDH [T11L] | 0.595
PPVKRRLDFETDH [L9F] | 2.12
PVVKRRLDLETDH [P2V] | 0.334
PPVDRRLDLETDH [K4D] | 0.297
PPDKRRLDLETDH [V3D] | 0.0397
PPGKRRLDLETDH [V3G] | 0.0409

Block 3 — method: protein binding microarray; molecule type: double-stranded DNA, one strand shown; matrix: in vitro; tested at: not given; reference: not given; direction: higher = stronger binding
Target: Histone acetyltransferase KAT6A, winged helix 2, GST fusion (KAT6A, Homo sapiens, UniProt Q92794, residues 85-181)
Setting: 8-mer, flanks averaged, mean of 2 arrays, mostly near background
Construct (chain): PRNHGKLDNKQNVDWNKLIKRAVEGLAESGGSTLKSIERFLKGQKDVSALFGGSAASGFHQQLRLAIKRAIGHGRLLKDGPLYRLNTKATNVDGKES
Strand | E-score
AATGTACT | -0.187
GCGGCGAC | 0.214
CTGGGGGA | -0.0197
CTACGCAC | 0.0366
GACCGGTA | -0.0418
AGGCGTTG | -0.0424
CAAAATGC | 0.0392
ATGGGCAG | 0.128
ACTACCGA | -0.0527
ACTTCTAA | -0.064
AGATAGTA | 0.00284
ATCCGCTA | 0.139
AGATGTGG | -0.138
AATGCGCG | 0.141
ACTCCACT | -0.0892
ACTAATAG | 0.0219
GAACGTGC | -0.161
AGCCCGGA | 0.11
CGTTTAAG | -0.0469
GCAGGTCC | 0.118
TAATCCCA | -0.147
AACCACGT | -0.252
AACTCATC | -0.0243
TGGATCAA | -0.0107
CATATATG | -0.00983

Block 4 — target: CREM, bZIP domain (human); method: DHFR protein complementation; matrix: yeast; reference: wild-type JUN-FOS pair; direction: higher = stronger binding
Setting: single substitutions, most at no-binding floor
Parent: JUN, bZIP domain (human); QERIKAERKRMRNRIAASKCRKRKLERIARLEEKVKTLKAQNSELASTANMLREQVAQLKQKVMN; partner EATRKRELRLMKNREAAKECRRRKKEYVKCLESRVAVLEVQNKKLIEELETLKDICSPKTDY
Substitution | binding fitness [natural log]
R30H | -1.36
S43T | -1.26
I28H | -1.39
Q41P | -1.54
V35P | -1.53
L38V | -1.51
A49M | -1.39
A49K | -1.47
E44L | -1.43
A40N | -1.46
A57T | -1.59
K34A | -1.48
A29T | -1.49
V56M | -1.53
A40G | -1.58
T37K | -1.24
A49R | -1.43
I28F | -1.24

Block 5 — method: EMSA with sequencing; molecule type: double-stranded DNA, one strand shown; matrix: in vitro; tested at: 10 and 20 nM; reference: negative control set to 0; direction: higher = stronger binding
Target: Hepatocyte nuclear factor 3-alpha (Foxa1, Mus musculus, UniProt P35582, residues 1-468, full length assumed)
UniProt P35582, sequence (whole entry, looked up): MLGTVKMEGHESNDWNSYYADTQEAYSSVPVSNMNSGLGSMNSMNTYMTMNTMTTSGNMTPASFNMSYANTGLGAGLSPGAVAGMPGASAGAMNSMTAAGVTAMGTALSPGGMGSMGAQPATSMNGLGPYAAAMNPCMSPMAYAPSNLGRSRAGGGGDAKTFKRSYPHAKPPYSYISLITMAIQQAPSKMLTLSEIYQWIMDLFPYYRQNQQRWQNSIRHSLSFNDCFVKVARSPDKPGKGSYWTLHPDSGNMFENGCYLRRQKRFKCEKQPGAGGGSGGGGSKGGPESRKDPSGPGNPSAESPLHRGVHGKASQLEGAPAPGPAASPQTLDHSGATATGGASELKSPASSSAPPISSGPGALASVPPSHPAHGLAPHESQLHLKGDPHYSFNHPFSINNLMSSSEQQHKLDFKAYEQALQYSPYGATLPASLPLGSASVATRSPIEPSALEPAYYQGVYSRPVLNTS
Setting: whole designed probe, mean of two concentrations, ends assumed
Constant ends, left off below: GTGAGCGGTGCCCATTGATGGGGAAC … TTTCACTGGGATCGTGGGGAC
Strand | normalised bound fraction [ratio]
TTATGATCTGAGTATATATAGTAAGTACCTCCCCTTTCAGGGTAAGGCAGTAGGTAATGGTGAAAAGGTGACTCAGGTACAGGGAAGCATGAGTAAACAACACCAAGCATATCTGACTCAAGGAATGCTTCAGAGGCCAGGGGTGCATGCCTGTAATCCCAGCACCTTGGAAGGCTGACACAGGAGGATCACT | 0.375
ATCTTCCCCCTCTTCCTTGCCCCACCAGCTCACCTTCCCGGGTTATTTAGTAGAAGGCAAATAAATAAAGCCGGCATTCGTTAACCCTCTTCTGGCGCAAACTGCTGTTTGCTCTGGATGAATCATGGTCCTTTGGCGACGCCAGGCTCCGGGAGAGCAAAGCACCGTGTCAGGGCCATGATCCGGGGTGGCC | 0.3
AAACAAGTTTTAAAATTACAAATGAATGCTCAAGAGGAGAACAAAGTTCTAGAGCCAGTTTTAAGGGTCAAATGGTAAACAAAAGGTCAAAAGGTAAACAAGCCCATATCTATGGTTTCAGCTAAGAGCTCAGAGGGGAGCTAGCTAGTTACTCATTATCGCAATGAATTAGCATAACACTAAGGAGAATTAC | 0.469
TCCTCTGACAGATCAAATTATTAAATTCTGCTTGGGGAAGGTATGGGGCACTCCTCTTGGTTGAAGCAATGCTGTACTTTTTATTCCTGCTGAGTAATTTGCCTCAAGTCAAACTACTTGCCCTAACTAATGATCAAACATATCCAGGAATTCTGTACAAGAAATGCATTCTGCTCTCCTTTGAAGTGCATTG | -0.00106
CGCGCCCGGACAGGACATGGGGGTTTCTAAACAAGGCTCTTCAGTATCAGCTCATTGTGAGTCACAGATCAGATCTGCCCAGTTCTCTTTTGCTGTTGACATTGTTGTTTCCTCTGCAGGATTCAGCAGTACTGAAAGGGTTATTCAGTCCCAACATGGGATCTTTACACAAGAAGGGGAGCTTGTGAAATGC | 0.126
TGTGTAAGATTAGCTATCTAAACATGAATAGCATTCTGAAGTGAAGGGAAAAAATTGACTTAAAATTTTAAAAGCATTAATATCATTTCAAAGTAAACAACAGGTCCTTTTAAAACGATTAGAGGATTATTTGTGCATTATTTTATGGGTCAAAATTTAAGCTTTTAAAAGAATAAAGTGATTTTTAAAAGAA | 0.432
TATTATGAGCTGGACCTTGCTTAGCCCCAGCTGGGTTCTTGCTTCCCATCCTCCTCCCTGCCTGCTGCTTCCCTGAGTCATGCCCACTGCAATGTAAATAACAGGGCAGCTCCTAGGAGCTTGCAATGACAGCAATAGTGGGAGGAACAAGAGGGAAGGGAGCAACTGTTTTGTTTTGTTCGAAATGGTGTCT | 0.409
AATAAGGGGGTAGCAGGGCAAAGCCATTTCACAGATCTGTAAACAAACTGCAATGCTGACCTCTGGTTTCCCTAACTAAGAGCTTTCACAAAGTAAACATGTTATTTAAAAATAATATCTCAAATAGCCATGCAGTTATGATGCGCAGTTTAACTGAGGTGGGGGAGATTCTCAGAGGGAAGAACCCAGAGAT | 0.476

Block 6 — method: DHFR PCA, deep sequencing; matrix: yeast; together with: (+)-ABA 0.39 µM; reference: wild-type fitted maximum; direction: higher = stronger binding
Target: ABI1, truncated, D143A, DHFR fusion (Arabidopsis thaliana)
Setting: methotrexate growth selection, single substitutions
Parent: PYL1, truncated, DHFR fusion (Arabidopsis thaliana); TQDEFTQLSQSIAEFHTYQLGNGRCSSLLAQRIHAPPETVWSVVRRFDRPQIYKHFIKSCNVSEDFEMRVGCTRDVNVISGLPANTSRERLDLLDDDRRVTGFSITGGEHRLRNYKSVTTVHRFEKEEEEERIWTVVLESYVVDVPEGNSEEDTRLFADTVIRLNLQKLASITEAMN; partner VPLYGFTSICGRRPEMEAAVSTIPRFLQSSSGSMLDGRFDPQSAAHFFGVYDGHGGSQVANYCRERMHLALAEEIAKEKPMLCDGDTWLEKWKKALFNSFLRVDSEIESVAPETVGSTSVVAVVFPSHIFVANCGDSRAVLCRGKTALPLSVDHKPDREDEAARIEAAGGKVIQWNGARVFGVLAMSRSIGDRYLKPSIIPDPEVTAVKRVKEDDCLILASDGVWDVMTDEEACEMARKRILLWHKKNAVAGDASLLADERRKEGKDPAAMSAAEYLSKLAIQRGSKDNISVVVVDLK
Substitution | relative binding score
T73I | 56.4%
L91W | -18.5%
K126E | 51.2%
I52F | 17%
E174L | -13.6%
E14D | 25.4%
Q2Y | 65.7%
S150G | 6.49%
L166F | -6.71%
R155T | 18.6%
T106G | 10.6%
T73F | 60.1%
D159F | -20.5%
K168I | -16%
S140D | -11.4%
E152L | 5.56%
L8A | 6.21%

A few entries again (block 6):
Substitution | relative binding score
L8A | 6.21%
E174L | -13.6%
L166F | -6.71%
K126E | 51.2%
R155T | 18.6%
T73F | 60.1%
Q2Y | 65.7%
T73I | 56.4%
S150G | 6.49%
I52F | 17%
S140D | -11.4%
K168I | -16%
L91W | -18.5%
E152L | 5.56%
T106G | 10.6%
D159F | -20.5%
